Results collected from several papers.
A part holds a random share of what one study measured.

Set 1
Target: Fragile X messenger ribonucleoprotein 1, C-terminal low-complexity region (Fmr1, Mus musculus, UniProt P35922)
Method: RNA Bind-n-Seq
Form: RNA
Matrix: in vitro
Tested at: 200 nM
Notes: whole 134-nt RNA, ends assumed
Together with: 150 mM KCl
Relative to: input library
Reading: higher = stronger binding
| Sequence | log2 enrichment |
| --- | --- |
| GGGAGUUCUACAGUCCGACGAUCAGUCCUGUGCUACACAUCGUAUGUACCGAAUCGGAAAAAGGUUUUUUUGGAAAAAGGAAAGUAUUAUGUUACGCCGUUCGGAUCUGCACUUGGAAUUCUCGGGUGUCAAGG | -1.55 |
| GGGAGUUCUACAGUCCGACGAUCCCUCAAGUCCUGUGCUACACAUCGUAUGUACCGAAUCGGUUUGGUUUGGUGGAAAGUAUUAUGUUACGCCGUUCGGAUCUGCACUUCCAGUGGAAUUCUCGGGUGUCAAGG | -0.314 |
| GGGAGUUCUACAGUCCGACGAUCCACAGACAACACGCACCCACACAGACACAGAGGGAAGGGGUUGGGAUGGGGACAGGGUGCACAGCAGGGAGGGGUAGGACCCCAGCCCCUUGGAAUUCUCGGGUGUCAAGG | 1.19 |
| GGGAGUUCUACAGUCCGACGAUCCUCAAGUCCUGUGCUACACAUCGUAUGUACCGAAUCGGUUUGGUUUUUGGUGGAAAGUAUUAUGUUACGCCGUUCGGAUCUGCACUUCCAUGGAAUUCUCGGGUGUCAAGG | -0.0741 |
| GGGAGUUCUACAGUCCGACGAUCUCAGGUCCUUAAGUACCUUCGUAUUACUUUUAGCAGGAAAAACGGCAUGUUUUGCAUCUGGUGUGCAAUGUGAAGAGUCCUUCAAAAAUGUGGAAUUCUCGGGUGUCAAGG | 0.138 |
| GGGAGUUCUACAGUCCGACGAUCCUCAAGUCCUGUGCUACACAUCGUAUGUACCGAAUCGGGUUGGGUUGGGGUUGGAAAGUAUUAUGUUACGCCGUUCGGAUCUGCACUUCCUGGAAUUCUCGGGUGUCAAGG | 0.344 |
| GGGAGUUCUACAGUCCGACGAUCUGGGAGGUGGAUUUUGUUUAUUUUUUUAGCUCAUUUCCAGGGGUGGGAAUUUUUUUUUAAUAAGUGUCAUGAAUAAAGUUGUUUUUGAAAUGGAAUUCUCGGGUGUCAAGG | 0.215 |
| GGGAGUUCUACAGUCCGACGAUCUGGGAGGUGGAUUUUGUUUAUUUUUUUAGCUGAUUUCCAGGGGUGGGAAUUUUUUUUUAAUAUGUGUCAUGAAUAAAGUUGUUUUUGAAAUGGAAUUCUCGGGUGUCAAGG | 0.256 |
| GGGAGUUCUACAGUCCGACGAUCUAACUUUAGAGGAGGAUCUGAUGGAUAUGGCAGUGGACGUGGAUUUGGGGAUGGCUAUAAUGGGUAUGGAGUAGGACCUGGAGGUGGCAAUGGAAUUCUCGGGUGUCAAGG | 0.179 |
| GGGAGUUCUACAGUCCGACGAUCAGUCCUGUGCUACACAUCGUAUGUACCGAAUCGGAAAGGAAAAAAAGGUUUUUUUGGAAAGUAUUAUGUUACGCCGUUCGGAUCUGCACUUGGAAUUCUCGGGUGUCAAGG | -1.26 |

Set 2
Target: RNA binding protein fox-1 homolog 2, RRM domain, GST-SBP tag (RBFOX2, Homo sapiens, UniProt O43251-10, residues 100-194)
Method: RNA Bind-n-Seq
Form: RNA
Matrix: in vitro
Tested at: 365 nM
Notes: natural RNA segment, single round, ends assumed
Relative to: no-protein control
Reading: higher = stronger binding
Target sequence (chain): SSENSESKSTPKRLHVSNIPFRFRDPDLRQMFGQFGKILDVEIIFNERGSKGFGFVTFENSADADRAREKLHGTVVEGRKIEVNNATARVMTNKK
| Sequence | RBNS enrichment (R) |
| --- | --- |
| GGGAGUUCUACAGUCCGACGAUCGUAUCCCUCUGCCACACCCCAGGCCCUGCGAGGGGCUAUCGAGAGGAGCUCACUGUGGGAUGGGGUUGACCUCUGCCGCCUGCCUGGGUAUCUGGGCCUGGCCAUGGCUGUGGAAUUCUCGGGUGCCAA | 0.306 |
| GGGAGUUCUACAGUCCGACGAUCAUUAUAAUUAUGGACACUGCAUCAGUAUACAUAACAUGAAGGAAUAAAAAGGAUACAGAAUUGUAUAUACAUACUUACUGUAACACAUCUAAAAAAAUGUAUAUGGGUAAUGGAAUUCUCGGGUGCCAA | 0.402 |
| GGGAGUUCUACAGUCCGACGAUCGAAUAGUUUUUGAAUACACCCACAUUUUGUACGUUUCCAUGUAAGCUGACAUAGUGUUCUGCCAUGUAAUGUUUAUAGCUGCUGAUGUAUGCACAUUUGGGGGUAUAUCUUGGAAUUCUCGGGUGCCAA | 0.385 |
| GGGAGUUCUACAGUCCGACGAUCCAAUGUUCGUCUCUGCCCUGAUGCUGCCUCAGGAUCCCCCAUUCCCCACCCUGGGAGAUGAGGGGGUCCCCAUGUGCUUUUCCAGUUCUUCUGGAAUUGGGGGACCCCCGUGGAAUUCUCGGGUGCCAA | 0.283 |
| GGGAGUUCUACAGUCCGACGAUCCAUCUGGCUUGAACUUUUUUUGUCCUUCCUGGAAUAGCUUCAGAUCAAUAGGCUUAAUGAAAGAGGUCUUUCUUGCUUUGGCUGAGAGCAGCCUCUUUUUAAAGUGUGAUUGGAAUUCUCGGGUGCCAA | 0.252 |
| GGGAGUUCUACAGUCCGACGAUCGAGGGAGGUCUUAGGAUGUUGUAUGCUGUGCUGAGUGGGUGCCAGUUUGGCGUGAUGUCACGUGUGGCCAGACUGGCGACCGUACACUAGGUUUUUGAUCUUGCACUUUGUGGAAUUCUCGGGUGCCAA | 0.788 |
| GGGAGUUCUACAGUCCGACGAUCUUCAGGUGGUAGCCCUGGUUGUGCUGGGCGGCUAGUGAUGAUGCUGUGCUCUGCCAUCCAUCCAGACAGAAACCAGCCCCAACGCCUCCAGUUCUGUUUUUGCAUCGUGAUGGAAUUCUCGGGUGCCAA | 1.23 |
| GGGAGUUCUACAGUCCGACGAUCGACUUAGCCUCAAAUUGGUGUUUUUCUUUCCCAAGAAUUCAUCUUAAGGGUUAGCUUUGAGUAUGUUACUGUCCUUCUAUGACAAGACCAAAGGAACAAACUCCUUGGUGUGGAAUUCUCGGGUGCCAA | 0.291 |
| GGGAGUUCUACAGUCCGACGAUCGUUCUUUUGGGGGUAAGGGGCUAACUGCUCAAGAAAAUCUUGAUCCCCUCUCUUGUCUCCAUUAUUUUAAUUGCUUUUUCUGGCAGCACGGUGGGGACAGGGCAGAUUUAUGGAAUUCUCGGGUGCCAA | 0.433 |

Set 3
Target: Prothrombin, mature alpha-thrombin (F2, Homo sapiens, UniProt P00734)
Method: aptamer microarray, sandwich
Form: DNA with 2'F-ANA
Matrix: in vitro
Tested at: 200 nM
Notes: whole 15-mer aptamer, many near background
Together with: Cy3 exosite-II aptamer, 400 nM
Reading: higher = stronger binding
Sequence: GGTTGGTGTGGTTGG
| Modification | mean fluorescence intensity |
| --- | --- |
| 2'F-ANA at 2 3 5 7 10 11 12 13 15 | 57.6 a.u. |
| 2'F-ANA at 2 4 5 6 9 12 13 14 | 61.5 a.u. |
| 2'F-ANA at 6 8 9 10 13 14 | 94.3 a.u. |
| 2'F-ANA at 1 2 4 5 7 9 10 11 13 14 | 57.9 a.u. |
| 2'F-ANA at 1 2 7 8 9 10 11 14 15 | 57 a.u. |
| 2'F-ANA at 1 3 6 10 15 | 78.5 a.u. |
| 2'F-ANA at 2 3 4 6 9 11 13 15 | 310 a.u. |
| 2'F-ANA at 1 3 6 7 8 11 12 14 | 124 a.u. |
| 2'F-ANA at 3 4 6 11 13 14 15 | 241 a.u. |
| 2'F-ANA at 2 3 5 6 7 11 15 | 71.6 a.u. |
| 2'F-ANA at 1 3 4 6 12 13 15 | 245 a.u. |
| 2'F-ANA at 1 2 3 5 6 7 8 10 | 46.3 a.u. |
| 2'F-ANA at 1 4 5 6 8 9 13 | 50.7 a.u. |
| 2'F-ANA at 1 3 4 5 7 12 | 158 a.u. |
| 2'F-ANA at 1 4 6 9 10 11 12 14 15 | 49.3 a.u. |
| 2'F-ANA at 1 2 3 4 6 7 8 9 11 12 13 14 15 | 77.9 a.u. |
| 2'F-ANA at 1 2 7 9 11 15 | 136 a.u. |
| 2'F-ANA at 2 3 5 9 10 13 15 | 53.2 a.u. |
| 2'F-ANA at 2 3 5 7 9 10 11 12 15 | 94.3 a.u. |
| 2'F-ANA at 2 4 5 6 8 9 11 13 14 15 | 46.1 a.u. |
| 2'F-ANA at 2 3 5 7 9 10 11 12 13 15 | 64.2 a.u. |
| 2'F-ANA at 1 4 7 9 10 11 12 13 15 | 52.8 a.u. |
| 2'F-ANA at 1 2 3 4 6 7 9 10 11 13 14 15 | 51.9 a.u. |
| 2'F-ANA at 1 2 4 7 9 11 13 14 | 57.9 a.u. |
| 2'F-ANA at 3 6 7 10 11 13 | 482 a.u. |

Set 4
Target: Hepatocyte nuclear factor 3-alpha (Foxa1, Mus musculus, UniProt P35582, residues 1-468, full length assumed)
Chain of UniProt P35582 (whole entry, looked up): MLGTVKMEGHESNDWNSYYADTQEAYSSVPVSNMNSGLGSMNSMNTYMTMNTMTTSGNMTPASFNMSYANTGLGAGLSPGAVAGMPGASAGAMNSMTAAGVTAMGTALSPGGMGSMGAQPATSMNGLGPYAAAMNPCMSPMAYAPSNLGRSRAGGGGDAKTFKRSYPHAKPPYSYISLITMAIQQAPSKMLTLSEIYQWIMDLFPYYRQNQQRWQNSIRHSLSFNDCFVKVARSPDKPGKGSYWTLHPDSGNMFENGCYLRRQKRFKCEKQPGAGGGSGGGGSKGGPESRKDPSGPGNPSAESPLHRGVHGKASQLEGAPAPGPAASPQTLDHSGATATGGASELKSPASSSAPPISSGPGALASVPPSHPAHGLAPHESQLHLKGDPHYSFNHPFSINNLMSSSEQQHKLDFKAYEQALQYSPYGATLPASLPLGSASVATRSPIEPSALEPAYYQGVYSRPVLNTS
Method: EMSA with sequencing
Form: double-stranded DNA, one strand shown
Matrix: in vitro
Tested at: 10 and 20 nM
Notes: whole designed probe, mean of two concentrations, ends assumed
Relative to: negative control set to 0
Reading: higher = stronger binding
| Sequence | normalised bound fraction |
| --- | --- |
| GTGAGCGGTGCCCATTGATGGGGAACAAATGGAAATCATAATGCAGATACAGAATTTTAAAGTTGGTTATCTCCTGCTACCTCAAGTATTATTTTAGGATTAGTAAGGGAAATTACCTAAGTAATCTTAGATGAATTATTCACATATAAATCTGAGATTCACTCATATATAATAATCTAATTTTTTACTAGACTTGGTGATCATAAGAAATATTATAAGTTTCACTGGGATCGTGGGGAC | -0.0362 ratio |
| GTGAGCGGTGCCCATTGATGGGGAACGTCTAGCTCCAGTCTTAGCATGGCAATTTCTTCCCGCAACGTACTATTTTCATGCAAGAAGTCTTTTTCTTTCTTACAACTAAGAGAAAGCTAAGTAATCTAAGAGAACTTTTAGTTAGCACTCAATAGATTGACATATCATTATTTCTTCTGAAATTCAAAAATAACATGTATTTGTATAATGAAAGAATCCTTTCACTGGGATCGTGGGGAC | 0.11 ratio |
| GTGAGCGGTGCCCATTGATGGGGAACCTCTGAATGCAGATCACAATCTTTGTTAGTCATCTTTATCTTACTGGTTACTTTGCTACTCAAAGTACTCTTTTCCTATGGTGGAAACTCCCTAGATTACTTATTCTTCCTGACCCAGGTTTAAAAGGCCTGCCTAACCATCTCAGTAGGCTTTTCCTAGCTGATATCCTTCTGAGCTGTGGTAGAGAAAGGGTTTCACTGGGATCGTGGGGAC | -0.0441 ratio |
| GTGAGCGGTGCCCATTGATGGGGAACTGCACCTATATAAAATATAGGTTTATTGTTCTTTGTGTCAATGGCATGTATTATTTTGGCTATTCTAGAAAAGAAATTACGTTGGAATTCCAATGTAAACATGTTTGTGTGAATCAGTAACCTTCTCTTTCTTTTGTATGTCATAAGAAAGCAACAAATGAGTTGTTAAATGCTAAAATTAAACACCATTTTATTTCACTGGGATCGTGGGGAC | 0.323 ratio |
| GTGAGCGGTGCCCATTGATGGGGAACCATCCCAGTTTTAATAGTGTCCAGCAGTTTCTTTAAGCATACATTTCTCATCTCCTCCTTGAAATAAAATTTTAGAAATGGATCTTGAGAACCCTGTTTACTTTGTCCGAAAAAAAAAAAAATCCCTTCACAACACTAAGAAACTTAAAGCACTTTCATAAATAGGGAAACAGCATCTTTTAATGTTTTATTGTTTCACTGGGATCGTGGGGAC | 0.237 ratio |
| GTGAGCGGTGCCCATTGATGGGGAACCCAAACAACTCCCACAATGTCCTTCCTACTGATGCATAACTGGTATTTAATAACAAACTATTTGCATTTTAAATTACTTAGAGTGCACTGGAAGATTACTCTGATCTGATCATAAGAAGTATTTTGCCTTGAGGAGGAGTTATGCTGCAGACAAAATTAACTCTCGATTAAAAATTCTACATAATCTTTAAAATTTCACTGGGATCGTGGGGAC | 0.165 ratio |

For quick reference, copied from above (set 3):
| Modification | mean fluorescence intensity |
| --- | --- |
| 2'F-ANA at 1 3 6 10 15 | 78.5 a.u. |
| 2'F-ANA at 2 3 4 6 9 11 13 15 | 310 a.u. |
| 2'F-ANA at 1 3 6 7 8 11 12 14 | 124 a.u. |
